Published values collected from several papers.
Numbered parts are unrelated; each lists some results of a single study. Substitutions count along the parent as printed.
Sequence of UniProt Q84WU6 (whole entry, looked up): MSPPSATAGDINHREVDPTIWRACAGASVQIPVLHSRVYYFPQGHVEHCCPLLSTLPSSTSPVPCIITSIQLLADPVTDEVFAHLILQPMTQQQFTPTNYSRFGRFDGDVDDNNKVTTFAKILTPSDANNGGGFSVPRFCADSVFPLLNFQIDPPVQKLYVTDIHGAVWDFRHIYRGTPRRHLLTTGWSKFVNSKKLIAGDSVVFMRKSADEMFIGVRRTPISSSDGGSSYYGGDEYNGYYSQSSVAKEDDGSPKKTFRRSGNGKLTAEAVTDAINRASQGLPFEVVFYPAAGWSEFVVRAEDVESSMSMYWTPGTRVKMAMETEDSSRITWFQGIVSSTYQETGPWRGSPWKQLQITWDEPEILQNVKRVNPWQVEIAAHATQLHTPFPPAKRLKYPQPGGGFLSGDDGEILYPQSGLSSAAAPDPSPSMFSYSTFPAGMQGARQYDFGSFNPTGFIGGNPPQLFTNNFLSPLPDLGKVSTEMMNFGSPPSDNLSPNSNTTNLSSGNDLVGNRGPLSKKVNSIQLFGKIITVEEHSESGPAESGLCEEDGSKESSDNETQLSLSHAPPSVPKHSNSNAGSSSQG

Study 1 — method: aptamer microarray, sandwich; form: DNA with 2'F-ANA; medium: in vitro; concentration: 200 nM; with: Cy3 exosite-II aptamer, 400 nM; reading: higher = stronger binding; sequence: GGTTGGTGTGGTTGG
Target: Prothrombin, mature alpha-thrombin (F2, Homo sapiens, UniProt P00734)
Notes: whole 15-mer aptamer, many near background
Modification	mean fluorescence intensity
2'F-ANA at 2 5 9 11 13 14	413 a.u.
2'F-ANA at 2 4 6 11 12 13 15	277 a.u.
2'F-ANA at 2 4 11 12 13	379 a.u.
2'F-ANA at 2 3 4 7 12	1210 a.u.
2'F-ANA at 1 2 4 5 7 9 10 11 14 15	50.7 a.u.
2'F-ANA at 1 2 3 5 6 7 8 13 14 15	45.1 a.u.
2'F-ANA at 2 5 7 9 10 12 13 15	50.3 a.u.
2'F-ANA at 9 11 13 15	385 a.u.

Study 2 — method: RNA Bind-n-Seq; form: RNA; medium: in vitro; concentration: 15 pmol; notes: 4-mer, random 30-nt RNA, single round; with: 3 µM DMDA-PatA, 2 mM AMP-PNP; baseline: input library; reading: higher = stronger binding
Target: Eukaryotic initiation factor 4A-I (EIF4A1, Homo sapiens, UniProt P60842, residues 1-406, full length assumed)
Sequence of UniProt P60842 (whole entry, looked up): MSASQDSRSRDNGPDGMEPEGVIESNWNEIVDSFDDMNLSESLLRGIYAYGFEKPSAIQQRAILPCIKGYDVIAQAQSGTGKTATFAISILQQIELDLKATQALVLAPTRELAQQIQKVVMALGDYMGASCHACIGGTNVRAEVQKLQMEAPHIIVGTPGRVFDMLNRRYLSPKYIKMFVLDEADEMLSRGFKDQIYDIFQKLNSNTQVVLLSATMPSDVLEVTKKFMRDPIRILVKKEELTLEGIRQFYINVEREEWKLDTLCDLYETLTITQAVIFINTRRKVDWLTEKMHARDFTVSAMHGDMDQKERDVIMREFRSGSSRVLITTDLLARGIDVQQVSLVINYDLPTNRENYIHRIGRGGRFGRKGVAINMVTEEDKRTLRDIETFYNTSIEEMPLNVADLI
Sequence	4-mer enrichment [fold]
CAAU	0.641
UGUU	1.44
UCUG	0.873
CAUU	0.632
CCAU	0.406
GUUC	0.87
UCGC	0.97
AAGA	1.05

Single results of other studies
P1: PafA, mature enzyme, eGFP fusion (Elizabethkingia meningoseptica, UniProt Q9KJX5); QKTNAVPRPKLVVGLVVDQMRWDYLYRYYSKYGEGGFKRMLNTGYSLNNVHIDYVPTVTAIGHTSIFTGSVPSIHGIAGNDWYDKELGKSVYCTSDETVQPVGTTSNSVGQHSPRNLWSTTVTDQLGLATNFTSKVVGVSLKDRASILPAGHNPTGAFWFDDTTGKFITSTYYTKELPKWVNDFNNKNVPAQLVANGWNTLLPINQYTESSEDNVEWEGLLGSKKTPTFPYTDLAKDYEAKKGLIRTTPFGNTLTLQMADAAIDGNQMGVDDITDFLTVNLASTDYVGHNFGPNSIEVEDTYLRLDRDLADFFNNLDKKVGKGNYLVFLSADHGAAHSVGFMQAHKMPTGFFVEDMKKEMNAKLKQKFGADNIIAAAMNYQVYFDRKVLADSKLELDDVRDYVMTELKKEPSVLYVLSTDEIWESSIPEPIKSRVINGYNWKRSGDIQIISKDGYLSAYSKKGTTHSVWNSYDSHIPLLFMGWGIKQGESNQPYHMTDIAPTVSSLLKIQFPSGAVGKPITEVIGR
B1: ARF11 500-622 (Arabidopsis thaliana, UniProt Q9ZPY6); chain SPKEQKQQTSTRSRIKVQMQGTAVGRAVDLTLLRSYDELIKELEKMFEIEGELSPKDKWAIVFTDDEGDRMLVGDDPWNEFCKMAKKLFIYPSDEVKKMRSKSLLGDKGTIVNLESDQRTVHV
Molecule	target or system	test	test system	setting	how to read	quantity	value
P1 D264G	vanadate, free oxyanion	microfluidic competitive inhibition	in vitro, cell-free expressed	not given, derived from inhibition constants, unchanged parent 676 nM	lower = stronger binding	oxyanion analog dissociation constant	644 nM
B1 (ARF11 500-622)	ARF17 (Arabidopsis thaliana, UniProt Q84WU6)	two-hybrid		weak activation fusion	baseline: out of 2 tests, higher = firmer interaction	positive tests	0

A few entries again (study 2):
Sequence	4-mer enrichment [fold]
UGUU	1.44
UCUG	0.873
